Published values gathered from unrelated publications.
Numbered parts are unrelated; each lists some results of a single study. Positions count from the first letter of the parent shown.

Series 1 — method: protein binding microarray; form: double-stranded DNA, one strand shown; medium: in vitro; concentration: not given; reference: not given; reading: higher = stronger binding; quantity: E-score
Target: Histone acetyltransferase KAT6A, both winged helices, GST fusion (KAT6A, Homo sapiens, UniProt Q92794, residues 1-181)
Notes: 8-mer, flanks averaged, mean of 2 arrays, mostly near background
Construct (chain): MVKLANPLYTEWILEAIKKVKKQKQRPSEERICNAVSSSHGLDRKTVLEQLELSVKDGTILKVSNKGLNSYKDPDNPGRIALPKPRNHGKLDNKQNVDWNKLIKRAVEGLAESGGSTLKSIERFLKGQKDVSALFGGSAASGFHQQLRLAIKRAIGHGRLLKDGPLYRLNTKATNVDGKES
Sequence = CACGTCCA; result = -0.0664
Sequence = CGCAAGGA; result = 0.0149
Sequence = CCGGCCCC; result = 0.102
Sequence = ACTTCCCC; result = -0.171
Sequence = AGAACCCT; result = -0.0834
Sequence = TCGAGCCA; result = 0.044
Sequence = ACGCCACT; result = -0.0144
Sequence = CATAAAAG; result = -0.0907
Sequence = CTGATTAC; result = 0.0375
Sequence = CCGCAGGC; result = 0.249
Sequence = GAACAATA; result = 0.0589
Sequence = ACGCCATA; result = 0.0554
Sequence = AGATACTA; result = -0.0586
Sequence = CGTCCGCC; result = 0.258
Sequence = ATCGCCCA; result = -0.181
Sequence = GCCCCACA; result = -0.232
Sequence = TCCCACAA; result = -0.138
Sequence = ATGATGCC; result = -0.0175
Sequence = GTGCACTA; result = 0.0651
Sequence = CGGGTCAG; result = 0.272
Sequence = AAGGTCAC; result = -0.0443
Sequence = CTTATGAA; result = -0.0133
Sequence = CCATCGCA; result = 0.0685
Sequence = AGAGAGAC; result = -0.177
Sequence = TGCATGAA; result = -0.0453

Series 2 — target: CCNE2, cyclin fold, Cln2 fusion (human); method: yeast growth competition, sequencing; medium: yeast; notes: weak parent motif; reference: not given; reading: higher = stronger binding; quantity: normalised enrichment score
Parent: ORC1 docking peptide (human); PRARKRLELGNLG; partner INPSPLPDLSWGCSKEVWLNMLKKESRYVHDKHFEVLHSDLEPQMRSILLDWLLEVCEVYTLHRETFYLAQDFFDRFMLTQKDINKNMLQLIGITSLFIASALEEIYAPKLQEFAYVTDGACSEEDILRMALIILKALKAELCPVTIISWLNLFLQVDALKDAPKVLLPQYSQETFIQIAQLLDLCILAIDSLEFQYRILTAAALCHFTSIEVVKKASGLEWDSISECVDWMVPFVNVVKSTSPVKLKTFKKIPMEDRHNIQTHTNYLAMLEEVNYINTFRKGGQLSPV
Change = R4G; result = 0.0645
Change = G10Q; result = 0.532
Change = A3F; result = 0.267
Change = L9H; result = 0.479
Change = R2F; result = 0.17
Change = A3Y; result = 1.27
Change = N11A; result = 0.226
Change = G13V; result = -0.185
Change = R4P; result = 0.376
Change = A3W; result = 1.02
Change = N11V; result = 0.996
Change = G10E; result = 0.524
Change = E8W; result = 1.18
Change = A3I; result = -0.798
Change = L12F; result = 1.39
Change = R2C; result = -0.00162
Change = P1Y; result = 0.194
Change = N11D; result = 0.649
Change = L12S; result = 0.73
Change = L9S; result = 0.899
Change = L7H; result = 0.282
Change = E8L; result = 0.912
Change = R2S; result = 0.723
Change = E8V; result = 0.571
Change = G10K; result = -0.341

Series 3 — method: protein-binding microarray; form: double-stranded DNA, one strand shown; medium: in vitro; concentration: 2200 nM top; notes: 60-bp whole probe; together with: salmon DNA 0.4 mg/ml; reference: random background probes; reading: higher = stronger binding; quantity: fitted relative affinity; shared flanks, not repeated: GCCTAGCAC … GTCTTGATTCGCTTGACGCTGCTG
Target: Interferon regulatory factor 7, full length, phosphomimetic (IRF7, Homo sapiens, UniProt Q92985, residues 1-503, S471D/S472D/S475D/S476D/S477D/S483D/S484D/S487D)
Construct (chain): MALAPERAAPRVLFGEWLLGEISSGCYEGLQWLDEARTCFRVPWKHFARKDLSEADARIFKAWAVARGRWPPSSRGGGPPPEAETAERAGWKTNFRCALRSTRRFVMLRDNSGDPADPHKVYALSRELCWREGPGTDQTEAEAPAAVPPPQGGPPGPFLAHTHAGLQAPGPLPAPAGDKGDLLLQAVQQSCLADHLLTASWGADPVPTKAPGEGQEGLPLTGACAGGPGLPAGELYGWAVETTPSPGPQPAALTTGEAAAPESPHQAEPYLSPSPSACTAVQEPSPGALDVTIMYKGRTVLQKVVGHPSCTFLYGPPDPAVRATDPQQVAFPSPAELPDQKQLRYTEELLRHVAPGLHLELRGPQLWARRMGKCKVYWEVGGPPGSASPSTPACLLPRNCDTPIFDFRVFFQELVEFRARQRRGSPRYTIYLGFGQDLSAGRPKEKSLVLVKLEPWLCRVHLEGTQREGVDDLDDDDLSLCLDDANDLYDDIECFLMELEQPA
Sequence = GACGGTATCGGACTGGGCACGTGCTAG; result = -0.585 z-score
Sequence = AACGGTTTCGGTCTCGGGACGTGCTAG; result = 6.87 z-score
Sequence = GACGGTTTCGGTTCCGGGATGTGCTAG; result = 11.8 z-score
Sequence = GACGGTTTCCTCCTGCTGACGTGCTAG; result = 2.42 z-score
Sequence = TCATTTATTTTTTTTATACTGTGCTAG; result = 1.39 z-score
Sequence = GACGGTTTCGGTATCGCGACGTGCTAG; result = 7.61 z-score
Sequence = TATAATATATATTCATATATGTGCTAG; result = 0.376 z-score
Sequence = TCACCACCCACTCTGGCACTGTGCTAG; result = 1.37 z-score
Sequence = GGGCACGTTGTTTAACTTCTGTGCTAG; result = -0.251 z-score
Sequence = TGACAGAGTGAGGTTTGGGCGTGCTAG; result = -0.68 z-score
Sequence = AAAGATTTACAAACTGTGAGGGTGCTA; result = -0.894 z-score
Sequence = TTAAGTTTCGGTCTCGGTTAGTGCTAG; result = 8.38 z-score
Sequence = CTCATTTTCATTTTGTGTCTGTGCTAG; result = 7.06 z-score
Sequence = TTAGAACTGGGGACTGGGTTAGTGCTA; result = -0.552 z-score
Sequence = TCAGCCAGCTCTTTCGTACTGTGCTAG; result = 1.3 z-score
Sequence = TCCTCTTTCTCTGCTACCCTTGTGCTA; result = 2.84 z-score
Sequence = TTAGGTATCGGGTTTCGTTTAGTGCTA; result = 3.31 z-score
Sequence = TAAGGTTTCGGGACTGGGTTAGTGCTA; result = 2.78 z-score
Sequence = TTAGATGTCAGACTGGATTAGTGCTAG; result = -0.179 z-score

Series 4 — method: RNA Bind-n-Seq; form: RNA; medium: in vitro; concentration: 365 nM; reference: no-protein control; reading: higher = stronger binding; quantity: RBNS enrichment (R)
Target: RNA binding protein fox-1 homolog 2, RRM domain, GST-SBP tag (RBFOX2, Homo sapiens, UniProt O43251-10, residues 100-194)
Notes: natural RNA segment, single round, ends assumed
Shared flanks, not repeated: GGGAGUUCUACAGUCCGACGAUC … UGGAAUUCUCGGGUGCCAA
Residues (chain): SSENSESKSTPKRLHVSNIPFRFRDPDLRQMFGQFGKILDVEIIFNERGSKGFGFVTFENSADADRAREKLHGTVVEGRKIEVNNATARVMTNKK
Sequence = AGCCUGGUCUAAAAAGGAAGUUCCAAGACUGCCAGGGCCACACAGAGGAAAAAAAAAACCCUCUAGAAAAACAAAAAUGAAGACAGGAUCUCAUGUAUCGUAGAUUGGCC; result = 0.449
Sequence = AGCAGCUCUCUGCAGAACAAAAACUAAUUCAAUGAAGCAGCUGUCCCUCCCAGUGUUUGCAGAGCUGAGAUUUUCCUAAUGACCUAAGAAGAUACUGACGUAGAACGGUA; result = 1.05
Sequence = UAGUUUAUUUGGCUCAGUCCACAGCUGCGUUGGAGUGGUGACUUUGGUAGCCCUUGAGCUCUAAUUAAGAGAGAUCCAAACCACUCAGUACCCACUGGGCAGUGGGAAGG; result = 0.257
Sequence = UCGUGUCCUUGCUGUCUUUUUAUUUUCCUUUUUGUUUGUUAGCAAAAACCUCUAUUUAGAUUUCAAUAAUCAGAGAAGUGUAAAAUAAAACAGAUUAUAUUGUACUUGAC; result = 0.647
Sequence = AAAAAAAAAGGAAUAGAAACAGUUUCAACCAGAUUGUCCUAUUCCCCCUGUUCCAUUCCCCUCUUCUUCCUUCUAUCUCCUUCCCCGGCAAAAACCAAACAAACUGGCAG; result = 0.675
Sequence = CUUAAAGCAACAACAAAACCUGUUCAUCUGGAUCCCUAGGUAAUUUUGACCAAGGUGAGACUUUUGGCAUAAAUUAAAUGGAUUGUGGUCAGCAUUACAUUUGAGAGAAU; result = 0.632
Sequence = UUUGUCUAACUGCUAGUAACCCUACCGAGUUUUAUAUAUGAGUGGGAUACUCAAUCUGGCCUUAAAAAGAUACACAAAGAUGGGCUGUGGGUCCCUGGAAAGGGGGAGAG; result = 1.35
Sequence = GCCACCACUCCUGUCAGCAAGUGCUCAGAGCAGGUGGGAGGCACAGAUUGUCCGUGGGAGGGCUCCAGUGUCUGGGAAGAGGGCAGGCGGCCCCCAUGAAUGUCCUCGGA; result = 1.09

Series 5 — method: protein-binding microarray; form: double-stranded DNA, one strand shown; medium: in vitro; concentration: not given; reading: higher = stronger binding; quantity: E-score
Target: Transcriptional repressor CTCF (CTCF, Homo sapiens, UniProt P49711, residues 1-727, full length assumed)
Sequence of UniProt P49711 (whole entry, looked up): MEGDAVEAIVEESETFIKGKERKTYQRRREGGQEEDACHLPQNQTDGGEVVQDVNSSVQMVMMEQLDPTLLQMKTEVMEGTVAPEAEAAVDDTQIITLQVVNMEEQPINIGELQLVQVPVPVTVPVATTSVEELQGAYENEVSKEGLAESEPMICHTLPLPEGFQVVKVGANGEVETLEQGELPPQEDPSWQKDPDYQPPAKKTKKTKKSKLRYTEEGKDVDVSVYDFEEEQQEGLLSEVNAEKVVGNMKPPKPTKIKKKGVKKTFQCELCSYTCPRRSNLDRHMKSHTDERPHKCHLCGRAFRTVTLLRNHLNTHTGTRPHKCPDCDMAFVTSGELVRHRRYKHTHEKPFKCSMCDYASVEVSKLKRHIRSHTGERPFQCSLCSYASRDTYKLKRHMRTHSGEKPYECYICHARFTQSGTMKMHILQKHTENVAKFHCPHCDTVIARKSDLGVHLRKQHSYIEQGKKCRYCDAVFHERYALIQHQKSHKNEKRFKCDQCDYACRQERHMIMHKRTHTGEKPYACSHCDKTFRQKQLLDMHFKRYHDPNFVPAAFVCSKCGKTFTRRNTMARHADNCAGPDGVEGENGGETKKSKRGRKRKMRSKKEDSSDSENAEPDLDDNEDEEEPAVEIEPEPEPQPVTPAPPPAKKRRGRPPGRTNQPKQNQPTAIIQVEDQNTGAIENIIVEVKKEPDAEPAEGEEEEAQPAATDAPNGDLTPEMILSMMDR
Notes: k-mer, scored over probes, only values ≥0.25
Sequence = ATTAAAAA; result = 0.299
Sequence = CGAATATA; result = 0.275
Sequence = GTATATAA; result = 0.293
Sequence = TACATGTA; result = 0.338
Sequence = ACGTATGA; result = 0.297
Sequence = ACATAATG; result = 0.265
Sequence = TATTATCA; result = 0.301
Sequence = ATTTAGCA; result = 0.257
Sequence = GCGCGATA; result = 0.344
Sequence = GCTATACA; result = 0.28
Sequence = ATAAAACA; result = 0.28
Sequence = ACCCCACC; result = 0.256
Sequence = AATAACCT; result = 0.265
Sequence = ATAATGGA; result = 0.3
Sequence = AAAATGTT; result = 0.263
Sequence = AATTATGT; result = 0.319

For quick reference, copied from above (series 5):
Sequence = CGAATATA; result = 0.275
Sequence = GTATATAA; result = 0.293
Sequence = TACATGTA; result = 0.338
Sequence = ACGTATGA; result = 0.297
Sequence = ACATAATG; result = 0.265
Sequence = TATTATCA; result = 0.301
Sequence = ATTTAGCA; result = 0.257
Sequence = GCGCGATA; result = 0.344
Sequence = GCTATACA; result = 0.28
Sequence = ATAAAACA; result = 0.28
Sequence = ACCCCACC; result = 0.256
Sequence = AATAACCT; result = 0.265
Sequence = ATAATGGA; result = 0.3
